Results pooled from the literature.
Every numbered part comes from another study and shows a few of its results, in no order.

Block 1 — technique: RNA Bind-n-Seq; molecule type: RNA; sample: in vitro; tested at: 200 nM; notes: whole 134-nt RNA, ends assumed; together with: 150 mM KCl; reference: input library; reading: higher = stronger binding
Target: Ras GTPase-activating protein-binding protein 1, full length (G3BP1, Homo sapiens, UniProt Q13283)
Sequence of UniProt Q13283 (whole entry, looked up): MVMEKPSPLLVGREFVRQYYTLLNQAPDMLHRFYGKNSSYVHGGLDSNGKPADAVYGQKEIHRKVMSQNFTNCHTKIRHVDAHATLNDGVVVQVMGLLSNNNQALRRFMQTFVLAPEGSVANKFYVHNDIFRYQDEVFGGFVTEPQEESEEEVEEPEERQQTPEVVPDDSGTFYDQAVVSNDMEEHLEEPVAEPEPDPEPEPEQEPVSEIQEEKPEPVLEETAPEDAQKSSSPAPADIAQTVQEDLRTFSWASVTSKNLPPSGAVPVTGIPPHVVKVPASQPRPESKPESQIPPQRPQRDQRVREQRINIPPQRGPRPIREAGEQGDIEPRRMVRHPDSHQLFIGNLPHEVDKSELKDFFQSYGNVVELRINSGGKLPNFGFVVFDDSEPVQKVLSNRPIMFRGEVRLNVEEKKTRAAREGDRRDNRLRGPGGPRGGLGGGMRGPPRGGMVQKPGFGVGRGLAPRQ
Strand	log2 enrichment
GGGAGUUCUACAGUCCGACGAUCUCAAGUCCUGUGCUACACAUCGUAUGUACCGAAUCGGGCCCGGCCCGGGCCCGGAAAGUAUUAUGUUACGCCGUUCGGAUCUGCACUUCCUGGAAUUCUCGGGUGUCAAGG	-1.09
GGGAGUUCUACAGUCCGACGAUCUCAGAAGGUCUUUUAAGUCUGACCACCCAGCUUGUCAAGGAAAAACUCUCCACCUGUGAAGCAGAGGACAUCGCCACCUAUGAGCAGAAUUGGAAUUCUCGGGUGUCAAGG	0.828
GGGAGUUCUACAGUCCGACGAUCUUCCUCAAGUCCUGUGCUACACAUCGUAUGUACCGAAUCGGAGGUGGAGGAAAGUAUUAUGUUACGCCGUUCGGAUCUGCACUUCCAGCAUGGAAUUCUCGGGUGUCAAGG	-0.985
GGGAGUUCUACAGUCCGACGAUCCCUCAAGUCCUGUGCUACACAUCGUAUGUACCGAAUCGGCGGGGCGGGCGGGAAAGUAUUAUGUUACGCCGUUCGGAUCUGCACUUCCAGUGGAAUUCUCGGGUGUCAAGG	1.24
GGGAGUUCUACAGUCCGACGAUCACCAUGCAGGUGGGCAUCUUUGGGAAGUGGGGCAAGGGGGGGAUAGGGAGGGGGGUAAUACUUUGGGAACAGGUGGUCCCAGGUCGUUUCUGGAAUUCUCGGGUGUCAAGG	1.32
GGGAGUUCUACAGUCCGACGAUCAGUCCUGUGCUACACAUCGUAUGUACCGAAUCGGAAAAAGGAAAAAGGAAAAAAAGGAAAGUAUUAUGUUACGCCGUUCGGAUCUGCACUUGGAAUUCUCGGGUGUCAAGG	-1.24
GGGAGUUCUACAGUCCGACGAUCUAACUUUAGAGGAGGAUCUGAUGGAUAUGGCAGUGGACGUGUAUUUGGGGAUGGCUAUAAUGGGUAUGGAGGAGGACCUGGAGGUGGCAAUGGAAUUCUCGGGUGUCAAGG	0.198
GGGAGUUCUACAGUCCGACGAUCAGUCCUGUGCUACACAUCGUAUGUACCGAAUCGGGAAAAAAAGGGAAAGGGAAAGGGAAAGUAUUAUGUUACGCCGUUCGGAUCUGCACUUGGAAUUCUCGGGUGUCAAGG	-0.124

Block 2 — technique: protein-binding microarray; molecule type: double-stranded DNA, one strand shown; sample: in vitro; tested at: not given; reading: higher = stronger binding
Target: Protein C-ets-1 (ETS1, Homo sapiens, UniProt P14921, residues 1-441, Y397A, full length assumed)
Notes: k-mer, scored over probes, only values ≥0.25
Construct (chain): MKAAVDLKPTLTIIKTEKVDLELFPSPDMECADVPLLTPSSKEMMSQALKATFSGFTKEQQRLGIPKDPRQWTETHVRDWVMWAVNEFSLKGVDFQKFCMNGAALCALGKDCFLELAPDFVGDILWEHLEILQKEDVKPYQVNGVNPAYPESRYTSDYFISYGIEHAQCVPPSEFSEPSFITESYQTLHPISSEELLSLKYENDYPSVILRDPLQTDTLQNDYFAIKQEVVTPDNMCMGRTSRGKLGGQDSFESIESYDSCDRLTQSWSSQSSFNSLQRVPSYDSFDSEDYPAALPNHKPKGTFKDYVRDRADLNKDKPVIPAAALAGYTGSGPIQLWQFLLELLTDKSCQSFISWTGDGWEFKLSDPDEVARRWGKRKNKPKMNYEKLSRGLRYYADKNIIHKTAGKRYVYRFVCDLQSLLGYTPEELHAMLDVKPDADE
Strand	E-score
AACAACAA	0.307
AGGAAGTG	0.39
ATTTTTGC	0.302
AGTTTGCC	0.379
GCCCCAAC	0.286

Block 3 — read-out: enzyme activity; mode: inhibitor; tested at: 20 µM; notes: hit confirmation
Target: Replicase polyprotein 1ab, main protease (rep, Severe acute respiratory syndrome coronavirus 2, UniProt P0DTD1)
SMILES	inhibition
CC(C)/N=c1\cc2n(-c3ccc(Cl)cc3)c3ccccc3nc-2cc1Nc1ccc(Cl)cc1	17%
CCc1ccc(/C=C/C(=O)Nc2ccc(C(C)=O)cc2)o1	64.7%
NCCc1cc(O)c(O)cc1O	37%

Block 4 — read-out: enzyme activity; mode: inhibitor; tested at: 20 µM
Target: Replicase polyprotein 1ab, polymerase (rep, Severe acute respiratory syndrome coronavirus 2, UniProt P0DTD1)
Structure (SMILES)	inhibition [%]
O=[N+]([O-])c1cccc2cn[nH]c12	-6.21
CNCC(=O)c1ccc(O)c(O)c1	1.42
C[C@@H]1C/C=C/C=C/C=C/C=C/[C@H](O[C@@H]2O[C@H](C)[C@@H](O)[C@H](N)[C@@H]2O)C[C@@H]2O[C@](O)(C[C@@H](O)C[C@H]3O[C@@H]3/C=C/C(=O)O1)C[C@H](O)[C@H]2C(=O)O	-11.1
Nc1c2c(nc3c1CCC3)CCCC2	1.04
Cc1cc(CC(C)CC(C)(C)C)n(O)c(=O)c1 (centres unmarked)	3.2
Cc1ccc(Cl)c(OCC(O)CNC(C)(C)C)c1 (centres unmarked)	2.49
CCCCCCCCCCCCCCCC(=O)OC[C@@H](NC(=O)C(Cl)Cl)[C@H](O)c1ccc([N+](=O)[O-])cc1	0.81
CN1CCc2nc(C(=O)N[C@@H]3C[C@@H](C(=O)N(C)C)CC[C@@H]3NC(=O)C(=O)Nc3ccc(Cl)cn3)sc2C1	-0.86
N#Cc1c(N)nc(SCc2ncc[nH]2)c(C#N)c1-c1ccc(O)cc1	-2.41
Oc1cccc(Nc2ncc(F)c(Nc3cccc(O)c3)n2)c1	-1.2
COc1cc(SC)ccc1C(=O)N1CCC(Cc2ccccc2)CC1	4.64
N#Cc1ccccc1OCC(O)CNCCNC(=O)Nc1ccccc1 (centres unmarked)	2.13
O=C(O)[C@H](O)[C@@H](O)[C@H](O)[C@H](O)CO	-1.19
O=C(CN1C(=O)C2(CCCC2)NC[C@H]1c1cc(F)cc(F)c1)Nc1ccc2c(c1)C[C@@]1(C2)C(=O)Nc2ncccc21	-1.34
Cc1ccc(C(C)C)c(OCC2=NCCN2)c1	-0.6
Cc1cnc(-c2cnc(NCCNc3ccc(C#N)cn3)nc2-c2ccc(Cl)cc2Cl)[nH]1	-3.78
CCCCn1c(-c2ccccc2)nc(-c2ccccc2)c1CN(Cc1ccc2c(c1)OCO2)Cc1ccc2c(c1)OCO2	-10.7
c1ccc(C2CN3CCSC3=N2)cc1 (centres unmarked)	-2.84
COc1ccc(CNC(=O)Nc2ncc([N+](=O)[O-])s2)cc1	4.9
CC(=O)NCCNc1cc(Cl)nn2c(-c3cccc(S(=O)(=O)N(C)C)c3)c(C)nc12	0.2
Nc1nnc(Sc2ncc([N+](=O)[O-])s2)s1	-12.2
Cc1c(CC(C)(C)C(=O)O)n(Cc2ccc(Cl)cc2)c2ccc(F)cc12	3.9
Cc1cncc(CN2CCC(=C3c4ccc(Cl)cc4CCc4cccnc43)CC2)c1	0.34
COc1ccc(C2(CNC(=O)c3ccc(NC(=O)c4ccco4)cc3)CCOCC2)cc1	0.13
N[C@H](Cc1c[nH]cn1)C(=O)O	-1.12

Block 5 — technique: protein binding microarray; molecule type: double-stranded DNA, one strand shown; sample: in vitro; tested at: not given; reference: not given; reading: higher = stronger binding
Target: Histone acetyltransferase KAT6A, winged helix 1, GST fusion (KAT6A, Homo sapiens, UniProt Q92794, residues 1-85)
Notes: 8-mer, flanks averaged, mean of 2 arrays, mostly near background
Construct (chain): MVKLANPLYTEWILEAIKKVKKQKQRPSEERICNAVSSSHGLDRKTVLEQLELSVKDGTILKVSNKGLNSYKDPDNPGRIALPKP
Strand	E-score
CCGGCGCC	0.456
ACCGCTGC	0.248
ATGGTCTC	-0.145
AATTGAAC	-0.17
CCTCAAAA	-0.0719
CCGGGCGA	0.247
TATGCTCA	-0.172
CCACGTCC	-0.145

Block 6 — cell line: HEK-293T; read-out: pseudovirus infection; technique: FDA-approved drug library screen; organism: VSV pseudotyped with SARS-CoV-2 spike; tested at: 10 µM; time: 16 h; reference: vehicle-treated
Compound	GFP-positive cells [%]
Cc1cnc(C(=O)N[C@H]2CCCCC/C=C\[C@@H]3C[C@@]3(C(=O)NS(=O)(=O)C3CC3)NC(=O)[C@@H]3C[C@@H](Oc4nc5ccccc5c5ccccc45)CN3C2=O)cn1	91.7
NC[C@H]1O[C@H](O[C@H]2[C@H](O)[C@@H](O[C@H]3O[C@H](CO)[C@@H](O)[C@H](N)[C@H]3O)[C@H](N)C[C@@H]2N)[C@H](O)[C@@H](O)[C@@H]1O	81
Cc1ccnc(NS(=O)(=O)c2ccc(N)cc2)n1	87.2
CCCCNC(=O)NS(=O)(=O)c1ccc(C)cc1	73.6

Repeated from above (block 2):
Strand	E-score
AACAACAA	0.307
AGGAAGTG	0.39
ATTTTTGC	0.302
AGTTTGCC	0.379
